Assay results gathered from unrelated publications.
Parts stem from different laboratories: compare values within a part only. Several values in a cell are separate wells, animals, samples, runs or records.
Chain of UniProt P0C1S8 (whole entry, looked up): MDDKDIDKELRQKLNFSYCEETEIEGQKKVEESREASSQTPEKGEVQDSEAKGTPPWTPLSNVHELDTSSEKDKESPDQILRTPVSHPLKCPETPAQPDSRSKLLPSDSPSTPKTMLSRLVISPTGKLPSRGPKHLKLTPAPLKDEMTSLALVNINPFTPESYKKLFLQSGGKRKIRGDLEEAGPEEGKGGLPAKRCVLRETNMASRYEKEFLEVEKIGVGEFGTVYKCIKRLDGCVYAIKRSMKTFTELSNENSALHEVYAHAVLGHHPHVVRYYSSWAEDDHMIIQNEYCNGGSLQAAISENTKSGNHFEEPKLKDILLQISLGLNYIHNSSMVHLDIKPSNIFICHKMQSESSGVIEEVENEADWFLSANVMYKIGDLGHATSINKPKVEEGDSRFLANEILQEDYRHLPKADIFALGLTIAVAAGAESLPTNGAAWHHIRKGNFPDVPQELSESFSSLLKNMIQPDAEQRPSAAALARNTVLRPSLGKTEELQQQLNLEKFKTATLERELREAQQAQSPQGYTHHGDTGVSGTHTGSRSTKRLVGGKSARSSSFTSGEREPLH
Chain of UniProt Q05655 (whole entry, looked up): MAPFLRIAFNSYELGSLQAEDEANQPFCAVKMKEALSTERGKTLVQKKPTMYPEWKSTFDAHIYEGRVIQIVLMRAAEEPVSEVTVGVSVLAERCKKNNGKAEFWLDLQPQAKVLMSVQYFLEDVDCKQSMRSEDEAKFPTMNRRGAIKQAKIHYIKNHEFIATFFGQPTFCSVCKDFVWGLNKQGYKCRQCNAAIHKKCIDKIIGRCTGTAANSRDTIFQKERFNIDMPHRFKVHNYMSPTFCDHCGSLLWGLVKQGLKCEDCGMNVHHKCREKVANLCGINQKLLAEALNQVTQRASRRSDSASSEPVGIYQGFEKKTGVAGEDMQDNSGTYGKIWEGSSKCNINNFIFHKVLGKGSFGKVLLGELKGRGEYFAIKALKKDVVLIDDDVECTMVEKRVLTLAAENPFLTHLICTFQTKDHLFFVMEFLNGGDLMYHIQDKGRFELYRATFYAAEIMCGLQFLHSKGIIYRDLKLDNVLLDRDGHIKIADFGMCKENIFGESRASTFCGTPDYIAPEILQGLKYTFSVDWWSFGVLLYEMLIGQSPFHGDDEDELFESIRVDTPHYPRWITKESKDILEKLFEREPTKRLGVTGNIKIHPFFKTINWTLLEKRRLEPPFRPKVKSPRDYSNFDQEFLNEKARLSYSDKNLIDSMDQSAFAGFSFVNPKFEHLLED
Chain of UniProt P33981 (whole entry, looked up): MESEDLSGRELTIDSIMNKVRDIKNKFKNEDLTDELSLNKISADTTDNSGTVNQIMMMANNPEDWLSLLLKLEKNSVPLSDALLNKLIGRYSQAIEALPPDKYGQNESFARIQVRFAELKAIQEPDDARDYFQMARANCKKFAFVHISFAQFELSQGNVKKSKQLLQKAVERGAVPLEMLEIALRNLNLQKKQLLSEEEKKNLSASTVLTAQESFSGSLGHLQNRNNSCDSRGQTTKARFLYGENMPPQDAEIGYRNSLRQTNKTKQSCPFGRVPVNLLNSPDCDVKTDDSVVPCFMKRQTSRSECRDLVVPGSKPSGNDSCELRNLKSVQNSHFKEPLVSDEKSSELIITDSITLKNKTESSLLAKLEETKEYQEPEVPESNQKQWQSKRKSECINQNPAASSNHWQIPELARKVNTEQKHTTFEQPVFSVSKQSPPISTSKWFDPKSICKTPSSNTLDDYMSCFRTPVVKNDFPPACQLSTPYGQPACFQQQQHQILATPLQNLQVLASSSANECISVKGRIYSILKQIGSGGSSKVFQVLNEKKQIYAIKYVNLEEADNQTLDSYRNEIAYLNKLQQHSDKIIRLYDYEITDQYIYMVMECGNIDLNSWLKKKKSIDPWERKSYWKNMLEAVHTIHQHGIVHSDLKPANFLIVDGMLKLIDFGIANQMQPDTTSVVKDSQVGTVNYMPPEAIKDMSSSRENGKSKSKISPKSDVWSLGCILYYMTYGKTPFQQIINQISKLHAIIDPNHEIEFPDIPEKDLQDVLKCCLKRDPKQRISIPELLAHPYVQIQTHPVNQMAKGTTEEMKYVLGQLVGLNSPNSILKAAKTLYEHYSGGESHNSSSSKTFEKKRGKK
Chain of UniProt Q9UF33 (whole entry, looked up): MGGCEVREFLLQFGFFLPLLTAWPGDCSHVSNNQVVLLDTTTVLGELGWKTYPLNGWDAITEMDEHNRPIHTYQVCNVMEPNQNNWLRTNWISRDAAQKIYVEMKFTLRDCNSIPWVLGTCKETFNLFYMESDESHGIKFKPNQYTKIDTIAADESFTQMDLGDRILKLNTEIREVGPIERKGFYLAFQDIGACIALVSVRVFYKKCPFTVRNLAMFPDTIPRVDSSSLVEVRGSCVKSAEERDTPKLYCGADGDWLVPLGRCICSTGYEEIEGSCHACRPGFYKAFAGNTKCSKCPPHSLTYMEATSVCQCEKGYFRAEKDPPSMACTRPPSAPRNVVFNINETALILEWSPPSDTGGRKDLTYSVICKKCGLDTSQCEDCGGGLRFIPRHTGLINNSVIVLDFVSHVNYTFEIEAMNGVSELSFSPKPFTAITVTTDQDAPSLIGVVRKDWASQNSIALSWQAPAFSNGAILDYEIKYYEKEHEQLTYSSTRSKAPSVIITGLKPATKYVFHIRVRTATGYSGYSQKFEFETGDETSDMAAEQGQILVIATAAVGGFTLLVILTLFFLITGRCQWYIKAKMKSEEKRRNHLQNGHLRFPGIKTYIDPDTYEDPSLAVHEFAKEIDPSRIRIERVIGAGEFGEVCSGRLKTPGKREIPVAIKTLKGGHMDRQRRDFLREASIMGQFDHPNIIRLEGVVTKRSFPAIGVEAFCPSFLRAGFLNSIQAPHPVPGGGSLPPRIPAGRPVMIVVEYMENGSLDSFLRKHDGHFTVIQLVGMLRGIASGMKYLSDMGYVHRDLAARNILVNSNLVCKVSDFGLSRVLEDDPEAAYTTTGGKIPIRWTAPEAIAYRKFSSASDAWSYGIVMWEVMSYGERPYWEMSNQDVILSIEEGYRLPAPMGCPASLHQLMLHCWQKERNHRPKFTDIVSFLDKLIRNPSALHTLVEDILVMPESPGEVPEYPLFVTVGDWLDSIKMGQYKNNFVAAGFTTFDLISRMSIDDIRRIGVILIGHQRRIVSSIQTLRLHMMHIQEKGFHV
Chain of UniProt Q00537 (whole entry, looked up): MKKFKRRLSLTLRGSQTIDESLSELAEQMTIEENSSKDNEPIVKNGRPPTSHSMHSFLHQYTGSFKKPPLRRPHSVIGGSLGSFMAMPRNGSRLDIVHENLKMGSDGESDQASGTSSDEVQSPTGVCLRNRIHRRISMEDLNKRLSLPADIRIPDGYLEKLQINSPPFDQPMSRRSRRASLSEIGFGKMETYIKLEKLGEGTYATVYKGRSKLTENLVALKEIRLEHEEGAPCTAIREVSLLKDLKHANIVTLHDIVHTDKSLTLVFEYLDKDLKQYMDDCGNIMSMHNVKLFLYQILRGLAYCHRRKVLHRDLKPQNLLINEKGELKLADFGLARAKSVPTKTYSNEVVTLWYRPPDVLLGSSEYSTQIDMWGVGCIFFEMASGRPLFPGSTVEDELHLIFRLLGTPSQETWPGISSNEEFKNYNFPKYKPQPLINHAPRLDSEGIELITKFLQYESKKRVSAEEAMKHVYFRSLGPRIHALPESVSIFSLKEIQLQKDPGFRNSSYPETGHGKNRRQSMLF

Study 1
Structure (SMILES): COc1cc(C(=O)OCCCN2CCCN(CCCOC(=O)c3cc(OC)c(OC)c(OCc4ccc([N+](=O)[O-])cc4)c3)CC2)cc(OC)c1OC
For von Frey test; mouse, CFA inflammatory pain; intravenous, dose not given, 24 h post-dose, first injection, day 1: “paw withdrawal threshold” read 0.11 g and 0.29 g and 0.17 g and 0.23 g and 0.32 g and 0.19 g.
The “paw withdrawal threshold” was 0.15 g and 0.12 g and 0.29 g and 0.14 g and 0.03 g (mice, STZ diabetic neuropathy; intrathecal, 10 nmol, 5 h, added: DPCPX 10 nmol, 30 min before).
The “paw withdrawal threshold” was 0.51 g and 0.98 g and 0.22 g (mechanical pain, von Frey test; mouse, STZ diabetic neuropathy; intravenous, 30 mg/kg, 1 h post-dose, third injection).
It gave 0.32 g and 0.44 g and 0.51 g for “paw withdrawal threshold” (mechanical pain, von Frey test; mouse, STZ diabetic neuropathy; intravenous, 30 mg/kg, 5 h post-dose, third injection).
The “paw withdrawal threshold” was 0.23 g and 0.44 g and 0.32 g and 0.36 g and 0.51 g (von Frey test; mouse, CFA inflammatory pain; intravenous, dose not given, 5 h post-dose, first injection, day 1).
It gave 0.09 g and 0.13 g and 0.05 g and 0.06 g and 0.23 g and 0.02 g for “paw withdrawal threshold” (mice, STZ diabetic neuropathy; intrathecal, 10 nmol, 24 h, added: DPCPX 10 nmol, 30 min before).
The “paw withdrawal threshold” was 0.36 g and 0.65 g and 0.98 g and 0.59 g (mechanical pain, von Frey test; mouse, STZ diabetic neuropathy; intravenous, 30 mg/kg, 3 h post-dose, third injection).
The “paw withdrawal threshold” was 0.13 g and 0.23 g and 0.29 g and 0.32 g (von Frey test; mouse, CFA inflammatory pain; subcutaneous, 10 mg/kg, 5 h post-dose, second injection, day 3).

Study 2
Compound: O=C(Nc1ccccc1)Nc1cccc(Oc2ccc3nccn3n2)c1
Observed: binding
Tested at: 1 µM
It gave 100% for remaining binding (ACVR2A (Homo sapiens, UniProt P27037); competition with immobilised ligand).
The remaining binding was 86% (FLT3 (Homo sapiens, UniProt P36888, N841I)).
It gave 100% for remaining binding (TTK (Homo sapiens, UniProt P33981); competition with immobilised ligand).
It gave 59% for remaining binding (WEE2 (Homo sapiens, UniProt P0C1S8); competition with immobilised ligand).
It gave 83% for remaining binding (WNK4 (Homo sapiens, UniProt Q96J92)).
The remaining binding was 84% (PRKCD (Homo sapiens, UniProt Q05655)).
For EPHA6 (Homo sapiens, UniProt Q9UF33); competition with immobilised ligand: remaining binding read 100%.
CDK17 (Homo sapiens, UniProt Q00537); competition with immobilised ligand — remaining binding: 95%.

Study 3
SMILES: Cn1cc(-c2cccc(CN3CCC4(CC3)COc3c4ccc4c3CN([C@H]3CCC(=O)NC3=O)C4=O)c2)cn1
Host: Crbn I391V mouse, MC-38 tumour
It gave 321 mm3 and 296 mm3 and 254 mm3 and 227 mm3 for tumour volume (30 mg/kg, day 6, added: anti-LAG3 antibody 10 mg/kg weekly).
30 mg/kg, day 15, added: anti-LAG3 antibody 10 mg/kg weekly — tumour volume: 267 mm3 and 477 mm3 and 260 mm3 and 53.3 mm3 and 988 mm3 and 992 mm3 and 353 mm3 and 947 mm3.
For oral, 30 mg/kg once daily, day 14: tumour volume read 87.7 mm3 and 42.4 mm3 and 48.1 mm3 and 159 mm3 and 500 mm3.
For 30 mg/kg, day 8, added: anti-LAG3 antibody 10 mg/kg weekly: tumour volume read 248 mm3 and 614 mm3 and 452 mm3 and 596 mm3 and 169 mm3.
oral, 30 mg/kg once daily, day 7 — tumour volume: 173 mm3 and 361 mm3 and 150 mm3 and 285 mm3.
oral, 30 mg/kg once daily, day 1 — tumour volume: 105 mm3 and 100 mm3 and 103 mm3 and 115 mm3 and 85.7 mm3.
oral, daily, 30 mg/kg, day 12, anti-PD1 combination study — tumour volume: 284 mm3 and 215 mm3 and 224 mm3 and 383 mm3 and 584 mm3.
oral, daily, 30 mg/kg, day 8, anti-PD1 combination study — tumour volume: 266 mm3 and 418 mm3 and 217 mm3 and 347 mm3 and 405 mm3.
The tumour volume was 45.6 mm3 and 531 mm3 and 81.5 mm3 and 16.7 mm3 and 196 mm3 (oral, 30 mg/kg once daily, day 22).
It gave 233 mm3 and 247 mm3 and 200 mm3 and 269 mm3 and 220 mm3 for tumour volume (oral, daily, 30 mg/kg, day 5, anti-PD1 combination study).
For oral, daily, 30 mg/kg, day 22, anti-PD1 combination study: tumour volume read 738 mm3 and 346 mm3 and 1820 mm3 and 2000 mm3 and 356 mm3.
The tumour volume was 1020 mm3 (30 mg/kg, day 48, added: anti-LAG3 antibody 10 mg/kg weekly).
For 30 mg/kg, day 4, added: anti-LAG3 antibody 10 mg/kg weekly: tumour volume read 198 mm3 and 105 mm3 and 192 mm3 and 117 mm3.

Further values, each from its own experiment
The IC50 of `CC(=O)NC(Cc1c[nH]c2ccccc12)C(=O)NC(CCC(=O)C=[N+]=[N-])C(=O)O` (stereo not drawn) is reported as over 1 mM (GLS (Homo sapiens, UniProt O94925); enzyme activity, inhibitor, radiometric).
For `C=CCN1C(=O)C(O)(C(=O)O)Oc2cc(F)ccc21` (stereo not drawn), the inhibition was 18.3% (Arabidopsis thaliana; hypocotyl length; Col-0; 25.0 µg/mL, 7 days, seed germination, dark).
For `CC(=O)N[C@@H](Cc1c[nH]c2ccccc12)C(=O)N[C@@H](CCC(=O)C=[N+]=[N-])C(N)=O`, the remaining compound was over 50% (C57BL/6 CES1-/- mouse GI homogenate; 1 h, 37 °C).
`FC(F)(F)c1ccc(C2=NOC3(NC(c4ccccc4)=NO3)N2c2ccccc2)cc1` (stereo not drawn) has a dihydroorotate level of 15 fold (Plasmodium falciparum; LC-MS; infected erythrocytes, 3D7; 10 µM, 5 h; reference: DMSO).
